Measured values from different studies.
Protocols differ between the studies behind these lines.

The half-life of `CN(C)CCN(Cc1ccccc1)C(=O)c1cc(-c2ccc(F)cc2)n2nc(C(C)(C)C)cc2n1` is reported as ~12.4 h (C57BL/6 x SJL mouse, wild type, brain; subcutaneous, 35 mg/kg).
For `CCCCCCCC/C=C\CCCCCCCCOP(O)(O)=S.N`, the half-life was 1.36 h (mouse, female, irradiated; sc, dose not given, 15.6 Gy partial-body, dosed 24 h after).
`CC(C)C[C@@H](/C=C/CC(=O)NC1CC(C)(C)N([O])C(C)(C)C1)NC(=O)OC(C)(C)C` gave a half-life of 0.167 h (C57BL/6NHsd mouse, female, lungs).
With `COCC[C@H](NC(=O)[C@H](CC(C)C)N(C)C(=O)CNC(=O)[C@@H](NC(=O)[C@H](Cc1ccc(O)cc1)NC(=O)[C@H](CCCCNC(=O)COCCOCCNC(=O)COCCOCCNC(=O)CC[C@H](NC(=O)CCCCCCCCCCCCCCCCC(=O)O)C(=O)O)NC(=O)[C@@H](N)CC(=O)O)C(C)C)C(N)=O` the half-life was 10.3 h (LC-MS; lean mouse, plasma; subcutaneous, 325 nmol/kg).
For `O=C[C@H](C[C@@H]1CCNC1=O)NC(=O)[C@H](Cc1cccc(F)c1)NC(=O)c1cc2ccccc2[nH]1`, the half-life was 5.21 h (mouse; intraperitoneal, 20 mg/kg).
`Cc1ccc(NS(=O)(=O)c2c(C(=O)N3CCCCCC3)c(C)n(C)c2C)c(Cl)c1` has a half-life of 1.85 h (ICR mouse, male, plasma; oral, dose not given).
With `CC(C)(CCCC/C=C/CCCCCC(C)(C)C(=O)O)C(=O)O` the half-life was 3.79 h (ICR mouse, plasma; oral, 10 mg/kg).
The half-life of `COc1ccc2sc3c(c2c1)SCCNC3=O` is reported as 0.233 h (mouse; intravenous, 25 mg/kg).
The half-life of `CC(C)C[C@@H]1NC(=O)[C@H](CCCNC(=N)N)NC(=O)[C@H](CCCCN)NC(=O)[C@H](CC(=O)O)NC(=O)[C@H](CCCCN)NC(=O)[C@@H](CO)NC1=O` is reported as ~0.567 h (mouse, serum; intraperitoneal, 10 µg/g).
`CCCCCCCCCCCCCCCC(=O)NCCCC[C@H](NC(=O)[C@H](CCCNC(=N)N)NC(=O)[C@H](Cc1ccc(O)cc1)NC(=O)[C@H](CC(C)C)NC(=O)[C@H](CCCNC(=N)N)NC(=O)CNS(=O)(=O)c1ccc(N)cc1)C(N)=O` gave a half-life of 2.35 h (ICR mouse, plasma; intraperitoneal, 4 mg/kg).
The half-life of `CC[C@H](C)CCCCC(=O)N[C@@H](CCN)C(=O)N[C@H](C(=O)N[C@@H](CCN)C(=O)N[C@H]1CCNC(=O)[C@H]([C@@H](C)O)NC(=O)[C@H](CCN)NC(=O)[C@H](CCN)NC(=O)[C@H](CC(C)C)NC(=O)[C@@H](Cc2ccccc2)NC(=O)[C@H](CCN)NC1=O)[C@@H](C)O` is reported as 1 h (C57BL/6 mouse, male, plasma; intravenous, 5 mg/kg).
`CN(CC(=O)N(Cc1ccc(C2CCCCC2)cc1)c1ccc(C(=O)O)cc1)S(=O)(=O)c1c(F)c(F)c(F)c(F)c1F` gave a half-life of 0.167 to 0.25 h (CD-1 mouse, plasma; intraperitoneal, 20 mg/kg).
